# Measured values from different studies.
# Compare with care: the assays were run in different laboratories. ± marks the error that the study gave.
SMILES,assay,test system,conditions,AUC(0-inf)
CCCC[C@H](NC(C)=O)C(=O)N[C@H]1CCC(=O)NC[C@@H](C(=O)N[C@@H](Cc2c[nH]c3ccccc23)C(N)=O)NC(=O)[C@H](CCCNC(=N)N)NC(=O)[C@@H](Cc2ccccc2)NC(=O)[C@H](Cc2c[nH]cn2)NC1=O,,"CD Sprague Dawley rat, female, plasma","subcutaneous, 1.0 mg/kg daily, day 1",907 ng·h/mL
C=CC(N)CCC(=O)O (centres unmarked),,"male Sprague-Dawley rat, plasma","oral, 1.0 mg/kg, formulation 5, added: Sar 200 mg/kg",1760 ± 70 ng·h/mL
CC(C)=CCC[C@](C)(O[C@@H]1O[C@H](CO[C@@H]2O[C@H](CO)[C@@H](O)[C@H](O)[C@H]2O)[C@@H](O)[C@H](O)[C@H]1O)[C@H]1CC[C@]2(C)[C@@H]1[C@H](O)C[C@@H]1[C@@]3(C)CC[C@H](O[C@@H]4O[C@H](CO)[C@@H](O)[C@H](O)[C@H]4O[C@@H]4O[C@H](CO)[C@@H](O)[C@H](O)[C@H]4O)C(C)(C)[C@@H]3CC[C@]12C,,"Sprague Dawley rat, male, plasma","oral, 86 mg/kg, in white ginseng extract",130000 ± 23500 ng·h/mL
CNCc1cc(-c2ccccc2F)n(S(=O)(=O)c2cccnc2)c1,,"Sprague-Dawley rat, plasma","oral, 10 mg/kg, dosed 30 min after voriconazole, added: voriconazole 30 mg/kg single oral dose",1550 ± 353 ng·h/mL
Nc1nc2c(ncn2COCCO)c(=O)[nH]1,,rat Sprague-Dawley,"intravenous, 30 mg/kg, added: leflunomide 30 mg/kg ip",39700 ± 2780 ng·h/mL
CC(C)=CCC[C@](C)(O[C@@H]1O[C@H](CO)[C@@H](O)[C@H](O)[C@H]1O)[C@H]1CC[C@]2(C)[C@@H]1[C@H](O)C[C@@H]1[C@@]3(C)CC[C@H](O)C(C)(C)[C@@H]3[C@@H](O[C@@H]3O[C@H](CO)[C@@H](O)[C@H](O)[C@H]3O)C[C@]12C,,"Sprague Dawley rat, male, plasma","oral, 25 mg/kg, in frozen ginseng extract",3800 ± 1800 ng·h/mL
O=C(CCCN1CCCN(c2ccc(Cl)cc2)CC1)c1ccc(F)cc1,,"male Sprague-Dawley rats, plasma","intravenous, 1.7 mg/kg, added: HAL 0.7 mg/kg plus BCT 0.1 mg/kg",579 ± 130 ng·h/mL
O=C(/C=C/c1ccc(O)c(O)c1)O[C@H](Cc1ccc(O)c(O)c1)C(=O)O,UPLC-MS/MS,"Wistar rat, microcirculation dysfunction model, plasma","oral, 100 mg/kg Salvia miltiorrhiza stem-leaf extract FS",224 ± 18.7 ng·h/mL
CCc1cc2c(cc1N1CCC(N3CCOCC3)CC1)C(C)(C)c1[nH]c3cc(C#N)ccc3c1C2=O,,"healthy subjects, matched to moderate impairment, plasma, total","oral, 300 mg single, fed",1950 ng·h/mL
CNC(=O)c1ccc(-c2cnc3ncc(Cc4ccc5ncccc5c4)n3n2)cc1F,,moderate hepatic impairment,"oral, 200 mg, geometric mean",5700 ng·h/mL
CC(C)=CCC[C@](C)(O[C@@H]1O[C@H](CO)[C@@H](O)[C@H](O)[C@H]1O)[C@H]1CC[C@]2(C)[C@@H]1[C@H](O)C[C@@H]1[C@@]3(C)CC[C@H](O)C(C)(C)[C@@H]3[C@@H](O[C@@H]3O[C@H](CO)[C@@H](O)[C@H](O)[C@H]3O[C@@H]3O[C@@H](C)[C@H](O)[C@@H](O)[C@H]3O)C[C@]12C,,"Sprague Dawley rat, male, plasma","oral, 45 mg/kg, in frozen ginseng extract",18300 ± 2700 ng·h/mL

# Some of these lines once more:
SMILES,assay,test system,conditions,AUC(0-inf)
CCCC[C@H](NC(C)=O)C(=O)N[C@H]1CCC(=O)NC[C@@H](C(=O)N[C@@H](Cc2c[nH]c3ccccc23)C(N)=O)NC(=O)[C@H](CCCNC(=N)N)NC(=O)[C@@H](Cc2ccccc2)NC(=O)[C@H](Cc2c[nH]cn2)NC1=O,,"CD Sprague Dawley rat, female, plasma","subcutaneous, 1.0 mg/kg daily, day 1",907 ng·h/mL
